Published values gathered from unrelated publications.
Each numbered part is a random draw from the data of one study; scales do not carry over between parts. Changes are numbered by the printed parent chain.

Set 1 — method: protein-binding microarray; form: double-stranded DNA, one strand shown; sample: in vitro; tested at: 250 nM; setting: 60-bp whole probe; with: salmon DNA 0.4 mg/ml; baseline: random background probes; direction: higher = stronger binding; constant ends, left off below: GCCTAGCAC … GTCTTGATTCGCTTGACGCTGCTG
Target: Interferon regulatory factor 7, full length, phosphomimetic (IRF7, Homo sapiens, UniProt Q92985, residues 1-503, S101K/S471D/S472D/S475D/S476D/S477D/S483D/S484D/S487D)
Target sequence (chain): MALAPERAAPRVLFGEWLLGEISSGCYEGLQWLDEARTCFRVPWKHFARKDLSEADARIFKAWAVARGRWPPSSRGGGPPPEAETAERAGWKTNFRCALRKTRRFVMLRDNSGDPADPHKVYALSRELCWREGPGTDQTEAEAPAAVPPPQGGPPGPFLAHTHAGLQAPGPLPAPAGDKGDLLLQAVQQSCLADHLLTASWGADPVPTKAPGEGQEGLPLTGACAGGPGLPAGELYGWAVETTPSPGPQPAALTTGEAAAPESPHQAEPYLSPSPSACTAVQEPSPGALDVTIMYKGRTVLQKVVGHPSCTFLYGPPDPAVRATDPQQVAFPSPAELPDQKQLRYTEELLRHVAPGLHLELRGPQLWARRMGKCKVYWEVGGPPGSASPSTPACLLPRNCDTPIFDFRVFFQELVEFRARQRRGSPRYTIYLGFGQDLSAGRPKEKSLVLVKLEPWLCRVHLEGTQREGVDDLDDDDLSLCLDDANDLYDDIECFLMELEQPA
Strand | log fluorescence [z-score]
TTCGGACTGGGGTATCGGTTAGTGCTA | 0.234
TTAGGTATCATTATCCTTTAGTGCTAG | 0.758
TCATGCTTGTATCTGGGACTGTGCTAG | -0.316
GACGGATTCGGTCTCGGGACGTGCTAG | 1.27
GACCGTATCGACACTGGGGACGTGCTA | 0.305
GACGGTATCCTTTTCCTGATGTGCTAG | 0.733
ACCCGAGACACCGCCCCTTTGTGCTAG | -0.011
TCACAGAAGGGAAACAGGACTGTGCTA | -0.0265
AAACCATTTTTTTTCACTATGTGCTAG | 0.722

Set 2 — method: Sort-seq; measured: YFP reporter; sample: E. coli; setting: PhoQ-PhoP variant library; with: 10 µM Mg2+; baseline: high Mg2+ state; direction: higher = stronger signaling
Molecule: PhoQ, residues 284 288 289 292 302 303 AMDMFI
target | fold induction
PhoP, residues 12 14 15 18 19 NYFRM (Escherichia coli, UniProt P23836) | 1.22
PhoP, residues 12 14 15 18 19 QYFSL (Escherichia coli, UniProt P23836) | 0.672
PhoP, residues 12 14 15 18 19 TQALL (Escherichia coli, UniProt P23836) | 0.415

Set 3 — method: RNA Bind-n-Seq; form: RNA; sample: in vitro; tested at: not given; baseline: input RNA pool; direction: higher = stronger binding
Target: RING finger protein unkempt homolog, zinc fingers 1-6, GST-SBP tag (UNK, Homo sapiens, UniProt Q9C0B0, residues 30-357)
Chain of UniProt Q9C0B0 (30-357, looked up): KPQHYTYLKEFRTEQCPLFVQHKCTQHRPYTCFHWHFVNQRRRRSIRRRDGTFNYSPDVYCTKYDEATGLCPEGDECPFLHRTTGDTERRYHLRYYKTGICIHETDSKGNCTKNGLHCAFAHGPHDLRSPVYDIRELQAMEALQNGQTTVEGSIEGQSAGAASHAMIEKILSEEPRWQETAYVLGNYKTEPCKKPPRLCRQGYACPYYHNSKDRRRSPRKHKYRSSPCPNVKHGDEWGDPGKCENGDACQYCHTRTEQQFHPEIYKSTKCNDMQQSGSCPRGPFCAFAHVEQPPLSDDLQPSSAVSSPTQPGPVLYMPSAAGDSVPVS
Setting: RNA with constant flanks, human and mouse sites, ends assumed
Strand | bound/input enrichment [ratio]
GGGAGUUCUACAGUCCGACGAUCCCUGCAUCUAAUAGUAGAUCUUCCCAGGACUUUGUGAUGCAUGUAAGUAUUUUUGAAUGUGAGUCAACAGGAGGUUCAUGUUGGGUCCUUGAGCAGACAAUUCAUUUAGAUGAGUUAAGCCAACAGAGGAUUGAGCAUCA | 0.155
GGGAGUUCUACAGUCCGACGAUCCAGAGAACUUUACUGAAGAAAGUCUGGAAAGUCUGGCGUUCCGUAGUGCAAAAGCAGUGGAAAGAUGUGGUAGAAAGAGCUUGUCAAGCAAGAGCUGAAGAAGUUUGUAUCCAGAUUUCCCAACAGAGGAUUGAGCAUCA | 0.149
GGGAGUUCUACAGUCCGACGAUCCUGGACACACUGGAAGAUGACAUGACCAUCAGUGUGGAAAAGAAGGUCCCGCUGUUACACAACUUUCACUCUUUCCUUUACCAACCAGACUGGCGGUUCAUGGAGAGCAAGGAGAAGGAUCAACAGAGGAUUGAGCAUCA | 0.114
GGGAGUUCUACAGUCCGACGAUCCUGAAAUUCUCUCCAAUUAAAUAUGGCUACCAGCCUCGCAGGAAUUUUUGGCCAGCAAGAUUAGCUACGAGACUCUUAAAACUUCGCUAUCUCAUACUAGGAUCGGCUGUUGGGGGUGGCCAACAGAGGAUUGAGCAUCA | 0.996
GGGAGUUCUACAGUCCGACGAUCCCCUUAACUGGGAAGUACCUGCCACGUAGGGCAUUUCUGCUGCCUAUUUCCAGCCAGCGGCUGCAUGGUUUGAAGUUCCUCCGUUGUGGUCAGAGGAACUCUGGUGUUUGGUUCCCUGCUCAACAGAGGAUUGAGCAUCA | 0.151
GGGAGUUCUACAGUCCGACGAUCAACAAAAUGAUGUACAUGACUGUGAAUUUUUAUACCGCUCAUUUUUUAAAGGGCUGCCUUUUUAAUUUCCCAUAGUGUUGUGGCGUGAACAGGGCAGAACCUUCUUUUGUAAAACACAACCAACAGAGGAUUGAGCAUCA | 0.158
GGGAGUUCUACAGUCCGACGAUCUUUUCUUUUGGAGGCGGAUUGUUUGAUGAUAUGUUUGAAGACAUGGAGAAAAUGUUUUCUUUUAGUGGCUUUGAUACCACCAAUCGACACACAGUACAGACUGAAAAUAGAUUUCAUGGACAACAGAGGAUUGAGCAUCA | 0.203
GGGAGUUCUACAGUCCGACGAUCUUGCAACUCAGGUUUUAUUUAUUUUGAAACUAUCAGUUAUAUAAACCUAAUUUAUUAUCAAAUAUGAUGGUCAUUAAAAAUAUUUUUACAAGUUGAGAUUUUGACAGAUAGGUACUUGAUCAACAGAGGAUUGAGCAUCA | 0.698
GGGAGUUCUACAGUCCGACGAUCUCUGACUGAAUGGAACAAGAUGGCUGGUGCUCUCAGGAGUUAACACCUCAGUGUGGUAGUAUUGAUUUGGUAAUUGUUAAAGAUGGGUUAUGUAGUUCGAUAAGCCAUUUCUUGCUGACGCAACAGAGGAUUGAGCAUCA | 0.713
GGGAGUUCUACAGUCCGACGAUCUAUUUCAUGAAGCCACUGCAUGGUAAAUAUGCAACUUCACGUUUUUCUGUUUUUAACACAUUUAGACCUUGGUUAAAAAUUCCUUUUGUUUAUGAUAAUUGUUUUUGCCAUUUGUAUAUUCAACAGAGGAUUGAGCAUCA | 0.647
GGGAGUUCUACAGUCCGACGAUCCGACGCAAUAAGGAUGUGUUGGCUUGGGUUAAAAAACGCAGAAGAACUAUUCGUCGAGAAGAUUUGAUCAGCUUCCUGUGUGGAAAAGUUCCUCCACCACGAAACUCUAGAGCUCCCCCACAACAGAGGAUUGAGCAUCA | 0.231

Set 4 — target: CCND1, cyclin fold, Cln2 fusion (human); method: yeast growth competition, sequencing; sample: yeast; setting: weak parent motif; baseline: not given; direction: higher = stronger binding
Parent: RB1 docking peptide (human); PKPLKKLRFDIEG
Substitution | normalised enrichment score
K2C | 0.426
F9I | 0.49
P3S | 0.332
P3W | 1.16
L7W | 0.408
E12V | -0.37
P3M | 0.151
K6D | 0.767
I11F | 0.247
I11W | -0.131
F9A | 0.349

Repeated from above (set 4):
Substitution | normalised enrichment score
P3S | 0.332
P3W | 1.16
